{"data": "Experimental data of several laboratories", "note": "Parts stem from different laboratories: compare values within a part only."}
{"data": "Block 1", "target": "Interferon regulatory factor 3, full length, phosphomimetic (IRF3, Homo sapiens, UniProt Q14653, residues 1-427, S386D/S396D/S398D/S402D/T404D/S405D)", "technique": "protein-binding microarray", "molecule type": "double-stranded DNA, one strand shown", "matrix": "in vitro", "tested at": "2540 nM top", "notes": "60-bp whole probe", "added": "salmon DNA 0.4 mg/ml", "relative to": "random background probes", "reading": "higher = stronger binding", "all sequences stand within": "GCCTAGCAC … GTCTTGATTCGCTTGACGCTGCTG", "Construct (chain)": "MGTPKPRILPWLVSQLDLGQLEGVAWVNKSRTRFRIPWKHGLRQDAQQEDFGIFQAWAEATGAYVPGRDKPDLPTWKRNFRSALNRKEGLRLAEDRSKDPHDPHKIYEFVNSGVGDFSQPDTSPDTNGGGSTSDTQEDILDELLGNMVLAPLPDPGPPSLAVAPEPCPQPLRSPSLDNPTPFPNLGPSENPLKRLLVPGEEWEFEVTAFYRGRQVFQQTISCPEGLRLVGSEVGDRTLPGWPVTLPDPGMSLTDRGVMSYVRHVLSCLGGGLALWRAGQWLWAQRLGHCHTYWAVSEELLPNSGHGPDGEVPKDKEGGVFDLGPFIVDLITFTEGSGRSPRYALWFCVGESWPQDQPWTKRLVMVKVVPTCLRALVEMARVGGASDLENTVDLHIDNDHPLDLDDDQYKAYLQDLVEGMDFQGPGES"}
{"Sequence": "GACGATATCCGTCTCGAGACGTGCTAG", "fitted relative affinity": "1.89 z-score"}
{"Sequence": "TTAGGATTCGGGACTGGGTTAGTGCTA", "fitted relative affinity": "0.407 z-score"}
{"Sequence": "TTAGGTATCTGACTGGGTTAGTGCTAG", "fitted relative affinity": "0.0678 z-score"}
{"Sequence": "TTAGGACTGGACTATTGGTTAGTGCTA", "fitted relative affinity": "-0.569 z-score"}
{"Sequence": "TGAGATTTCGGGTTTCGATTAGTGCTA", "fitted relative affinity": "3.26 z-score"}
{"Sequence": "TATGTTCACTATTTAAGACCGTGCTAG", "fitted relative affinity": "1.11 z-score"}
{"Sequence": "TTAGGTCTTCTACTGCTTTAGTGCTAG", "fitted relative affinity": "-0.445 z-score"}
{"data": "Block 2", "target": "Histone acetyltransferase KAT6A, both winged helices, GST fusion (KAT6A, Homo sapiens, UniProt Q92794, residues 1-181)", "technique": "protein binding microarray", "molecule type": "double-stranded DNA, one strand shown", "matrix": "in vitro", "tested at": "not given", "notes": "8-mer, flanks averaged, mean of 2 arrays, mostly near background", "relative to": "not given", "reading": "higher = stronger binding", "Target sequence (chain)": "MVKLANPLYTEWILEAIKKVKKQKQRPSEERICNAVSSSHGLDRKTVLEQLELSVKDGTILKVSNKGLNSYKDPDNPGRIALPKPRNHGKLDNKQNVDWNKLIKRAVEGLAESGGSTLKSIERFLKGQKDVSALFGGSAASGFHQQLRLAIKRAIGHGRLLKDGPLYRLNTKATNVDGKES"}
{"Sequence": "GGCGTTAC", "E-score": 0.06}
{"Sequence": "ACTGGCGA", "E-score": -0.097}
{"Sequence": "CCGCTTGC", "E-score": 0.234}
{"Sequence": "AGACAGGG", "E-score": -0.0754}
{"Sequence": "ATGCGATC", "E-score": 0.0642}
{"Sequence": "AGGGAAAG", "E-score": -0.139}
{"Sequence": "ACCCTAGG", "E-score": -0.209}
{"Sequence": "AATGCTGC", "E-score": -0.0828}
{"Sequence": "ATTGCAAT", "E-score": 0.155}
{"Sequence": "AGCAGTTC", "E-score": 0.00492}
{"Sequence": "AAACAGAG", "E-score": -0.147}
{"Sequence": "CAGGACTA", "E-score": -0.15}
{"data": "Block 3", "target": "Centromere-binding protein 1, full length, N-terminal tag (CBF1, Saccharomyces cerevisiae, UniProt P17106, residues 1-351)", "technique": "protein-binding microarray", "molecule type": "double-stranded DNA, one strand shown", "matrix": "in vitro", "tested at": "0.8 µM", "notes": "whole 60-bp probe, no competitor", "reading": "higher = stronger binding", "all sequences stand within": "… GTCTTGATTCGCTTGACGCTGCTG", "UniProt P17106, sequence (whole entry, looked up)": "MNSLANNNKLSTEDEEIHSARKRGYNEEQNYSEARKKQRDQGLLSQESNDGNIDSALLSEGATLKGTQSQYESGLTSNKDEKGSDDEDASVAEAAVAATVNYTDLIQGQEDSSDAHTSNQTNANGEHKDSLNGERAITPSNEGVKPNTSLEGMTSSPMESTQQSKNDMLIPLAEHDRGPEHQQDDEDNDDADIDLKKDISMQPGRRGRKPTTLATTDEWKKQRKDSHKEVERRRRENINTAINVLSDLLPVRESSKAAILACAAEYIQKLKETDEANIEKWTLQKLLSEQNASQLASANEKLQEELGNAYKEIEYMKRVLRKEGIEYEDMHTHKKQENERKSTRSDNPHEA"}
{"Sequence": "CTAGTCTAAAGAACGTGCATCAGAGAAGAATGATTC", "fluorescence intensity [a.u.]": 697}
{"Sequence": "GAAAAAATCCCCAGGCGGGTGACACTTAAGTACTAG", "fluorescence intensity [a.u.]": 477}
{"Sequence": "CTAGGTATGTTCAATTGCACCACCAGTATTCGATTC", "fluorescence intensity [a.u.]": 500}
{"Sequence": "CTAGAAATTTCCCGCCACATGAACTGAGTCAGGTTC", "fluorescence intensity [a.u.]": 597}
{"Sequence": "CTACAATAATAAAATCATCACCTCCGTTGCCTTTTC", "fluorescence intensity [a.u.]": 504}
{"Sequence": "CTACGTTTCTGCCGTCACGTTTCCTATTATCACTTC", "fluorescence intensity [a.u.]": 2290}
{"Sequence": "GAAGGCTTTGAACGTGATTTTCCCAAACCCTGTTAG", "fluorescence intensity [a.u.]": 785}
{"Sequence": "CTATCATGGCGCCATCACCCGCAGGGAATATAATTC", "fluorescence intensity [a.u.]": 489}
{"data": "Further values, each from its own experiment"}
{"Substance": "PhoQ, residues 284 288 289 292 302 303 WVSSAF", "target": "PhoP, residues 12 14 15 18 19 SHWTV (Escherichia coli, UniProt P23836)", "test": "Sort-seq, item: YFP reporter", "test system": "E. coli", "setting": "PhoQ-PhoP variant library, added: 10 µM Mg2+", "scale": "relative to: high Mg2+ state, higher = stronger signaling", "measurement": "fold induction", "value": 13.1}
{"note": "A few entries again (block 1):"}
{"Sequence": "TTAGGATTCGGGACTGGGTTAGTGCTA", "fitted relative affinity": "0.407 z-score"}
{"Sequence": "TATGTTCACTATTTAAGACCGTGCTAG", "fitted relative affinity": "1.11 z-score"}
{"Sequence": "TGAGATTTCGGGTTTCGATTAGTGCTA", "fitted relative affinity": "3.26 z-score"}
{"Sequence": "TTAGGACTGGACTATTGGTTAGTGCTA", "fitted relative affinity": "-0.569 z-score"}
{"Sequence": "TTAGGTATCTGACTGGGTTAGTGCTAG", "fitted relative affinity": "0.0678 z-score"}
